# Measurements gathered from unrelated publications.
# Numbered parts are unrelated; each lists some results of a single study. Substitutions count along the parent as printed.

# Set 1 — technique: RNA Bind-n-Seq; form: RNA; medium: in vitro; tested at: 200 nM; notes: whole 134-nt RNA, ends assumed; together with: 150 mM LiCl; reference: input library; reading: higher = stronger binding; each molecule: 7-deaza-guanosine replaces G
# Target: Ras GTPase-activating protein-binding protein 1, full length (G3BP1, Homo sapiens, UniProt Q13283)
# UniProt Q13283, sequence (whole entry, looked up): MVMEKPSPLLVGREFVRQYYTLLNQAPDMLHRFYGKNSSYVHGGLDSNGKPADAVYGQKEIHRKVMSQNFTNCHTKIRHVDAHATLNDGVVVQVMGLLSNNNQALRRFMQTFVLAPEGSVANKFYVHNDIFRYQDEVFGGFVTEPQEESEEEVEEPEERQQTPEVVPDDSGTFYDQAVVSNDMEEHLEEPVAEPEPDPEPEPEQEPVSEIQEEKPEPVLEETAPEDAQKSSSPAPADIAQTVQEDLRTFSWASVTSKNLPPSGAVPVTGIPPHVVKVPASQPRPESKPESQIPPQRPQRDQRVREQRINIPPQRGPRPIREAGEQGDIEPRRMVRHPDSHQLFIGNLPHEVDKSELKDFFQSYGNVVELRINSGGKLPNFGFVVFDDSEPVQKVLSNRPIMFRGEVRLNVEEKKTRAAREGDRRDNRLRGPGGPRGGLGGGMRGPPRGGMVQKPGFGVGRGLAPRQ
# Shared flanks, not repeated: GGGAGUUCUACAGUCCGACGAUC … UGGAAUUCUCGGGUGUCAAGG
Sequence,log2 enrichment
CCUCAAGUCCUGUGCUACACAUCGUAUGUACCGAAUCGGGGAGGGAGGAGGGGAAAGUAUUAUGUUACGCCGUUCGGAUCUGCACUUCCA,0.0591
UCCUGUGCUACACAUCGUAUGUACCGAAUCAAAUUUUUAAACCCCCCCAAACCCCCAAAAAAGUAUUAUGUUACGCCGUUCGGAUCUGCA,0.807
UAACUUUAGAGGAAGAUCUGAUGGAUAUGGCAGUGGACGUGGAUUUGGGGAUGGCUAUAAUGGGUAUGGAGGAGGACCUGGAGGUGGCAA,0.0635
CUGUGCUACACAUCGUAUGUACCGAAUCGGAAAAAAAGGAAAAAAAGGGGAAAAAAAGGGGAAAGUAUUAUGUUACGCCGUUCGGAUCUG,-0.286
UUUUCAUACCGAUCUAGAGUUCGUCCUUGCGUGGUUUAUGGUGGUGCCGAUAUUGGUCAGCAGAUUCGAGACUUGGAACGUGGAUGCCAU,-0.316
ACCAAACAGGUGGGCAUCUUUGGGAAGUGGGGCAAGGGGGGGAUAGGGAGGGGGGUAACACUUUGGGAACAGGUGGUCCCAGGUCGUUUC,0.353
CUGUGCUACACAUCGUAUGUACCGAAUCGGGGAAAAAGGGGUUUUUGGGGUUUUUUUGGGGAAAGUAUUAUGUUACGCCGUUCGGAUCUG,-0.713
CAAGUCCUGUGCUACACAUCGUAUGUACCGAAUCGGCCCGGGCCCGGGGCCCGGGGAAAGUAUUAUGUUACGCCGUUCGGAUCUGCACUU,-0.763

# Set 2 — technique: DHFR PCA, deep sequencing; medium: yeast; together with: (+)-ABA 0.11 µM; reference: wild-type fitted maximum; reading: higher = stronger binding
# Target: ABI1, truncated, D143A, DHFR fusion (Arabidopsis thaliana)
# Notes: methotrexate growth selection, single substitutions
# Starting sequence: PYL1, truncated, DHFR fusion (Arabidopsis thaliana); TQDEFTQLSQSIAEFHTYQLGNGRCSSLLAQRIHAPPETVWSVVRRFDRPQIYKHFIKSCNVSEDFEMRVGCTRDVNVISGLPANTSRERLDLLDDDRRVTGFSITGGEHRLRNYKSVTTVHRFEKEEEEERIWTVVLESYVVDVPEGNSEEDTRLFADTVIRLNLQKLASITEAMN
Change,relative binding score [%]
R98A,6.82
F157P,2.28
L94G,-4.26
N165C,4.19
L28C,16.6
V62F,1.01
I172A,-5.42
P83C,13.1
T106K,-3.53
S140M,9.08
N77E,64.3
E14Q,13.6
H55G,19.1
C72H,-0.342
S117W,-4.95
N177V,50.5
E139M,9.16
S26D,-3.88
E174Q,10.9
E67Q,35.3
D153F,-15.7
D159I,-2.86
G23M,5.66
R88M,8.34
D65N,36.6

# Set 3 — technique: universal PBM; form: double-stranded DNA, one strand shown; medium: in vitro; tested at: not given; reading: higher = stronger binding
# Target: Sal-like protein 4, full length isoform B (SALL4, Homo sapiens, UniProt Q9UJQ4-2, residues 1-616)
# Notes: 8-mer, flanks averaged, mean of replicates
Sequence,E-score
ATACGGAA,0.107
AAGCCGAT,0.0362
CATAAGTA,0.226
TGATTGCA,0.138
GCAGTATA,0.14
CGAATTTC,0.166
CAAGCGAG,-0.0536
CCTTAGTA,0.0295
CTCCATTC,-0.134
TCCTTCAA,0.139
GACCCTCA,-0.0569
CTTGGCAC,-0.127
ACCCGGCA,-0.281
CTATTGAA,0.214
GGATGCGA,-0.0371
CCTACCCG,-0.224
GAGTCTAA,0.00489
AAAGGCCA,-0.149
ACCATCCG,-0.169
GCCAGAGA,-0.153
AGAGGTGC,-0.226
CCGTTTCG,-0.177
GCTCCTTA,-0.115
CGCTCGGC,-0.375
AAAGATAG,0.142

# Set 4 — technique: RNA Bind-n-Seq; form: RNA; medium: in vitro; tested at: 365 nM; reference: no-protein control; reading: higher = stronger binding
# Target: RNA binding protein fox-1 homolog 2, RRM domain, GST-SBP tag (RBFOX2, Homo sapiens, UniProt O43251-10, residues 100-194)
# Notes: natural RNA segment, single round, ends assumed
# Shared flanks, not repeated: GGGAGUUCUACAGUCCGACGAUC … UGGAAUUCUCGGGUGCCAA
# Target sequence (chain): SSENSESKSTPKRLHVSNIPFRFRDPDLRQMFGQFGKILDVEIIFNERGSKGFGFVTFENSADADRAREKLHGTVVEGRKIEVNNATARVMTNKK
Sequence,RBNS enrichment (R)
UUUGCUGCCUCGCCAGUAGAGGGUGCCGCUGUGCAGGGUAACUGCCCGCCUGCUCCCUUCCUGACCUCCCCUGACCCCGAAGAUCACUACCUCUGUCAUUCAGGCAUUGG,0.264
CAUUGUUUUCAAAUAAACAGUGUUUUCCAUGACUGAGAUAUUUAUUUUUGGGAAAGCAACGAGGUAAAAAUUAUGUUUCUCAGAUGCACUGCUACUUUGGCGUUAUUACU,0.699
CAGCUACUUUGUGUUGAACACAAUUGAUUCUCCAGGUGCUCAUGGUGCAGGAAAACAGGACAGACAGAGAGCACCUGAACCCUUGCCAUCUGAUGUCACCAAUUCAGGAA,0.749
CCGAGGAACUUACAGGAGGAGCCUAGGUCUGAAGUCAGUGUUAGGGAAGGGCCCAUAGCCACUUCCUCUGCUCCUGAGCAGGGCUGAAGCCGUUUGCAAGGGACUUGCUU,0.325
CCCCAGUCCCCACAGUGGCCCCACCUCUGGGCCCUGCACCAGAGCCCUUCUGUGUCACGGCGGGCUGUGCACCCAUGCACACACCUACGCACACACAACACUCCGCACUG,0.639
CGGUAAUAAGAGCUGGCAAGUAAGGCUCAGAGAGAAGCAACCAACUGGAGUUAAUUGCCCAUUUGGGCUCUUUGUAUAAUUAUGGCAAAGUAGACAUUUAUGUUCUAAUU,0.504
GGUUUUUUUAAGUUAUUUUAAAAAUCUAGCUUCCCUUUUUGAUUAAGAUUGCCAUCUUGCUUUUAGGCAAAACAAACCAAUUAACAAACAACCACAAGAAAGGGAGAAGA,0.423
AUCCCAGGCUUGCCCCCGAGCCCUCCUGUCCUUCUGGGUUUGUGUUUGCCUUGCCUGGUGCUUCCUCCCUCAUUGUGUUGUUGAAUAGACCUAGGCAGCCUUGUAUCCAU,0.739

# Excerpt of the above (set 2):
Change,relative binding score [%]
C72H,-0.342
V62F,1.01
G23M,5.66
D159I,-2.86
I172A,-5.42
H55G,19.1
E174Q,10.9
